Published values collected from several papers.
A part holds a random share of what one study measured. Several values in a cell are separate wells, animals, samples, runs or records.

Set 1 — cell line: mouse MPNST tumor cells; technique: high-content nuclear imaging; item: cell number; tested at: 10 µM; time: 12 h; setting: mean of 2 replicates; baseline: plate mean; direction: higher = more cells
SMILES	nuclei count
CCc1ccc(OCc2ccccc2C(=O)Nc2ccc3nc(C)cc(N)c3c2)cc1	-5.89 z-score
CCN(CC)CCCCN1c2ccccc2Oc2ccc(Cl)cc21	-4.8 z-score
COc1cc2c(NC3CCN(C)CC3)nc(N3CCCN(C)CC3)nc2cc1OCCCN(C)C	0.491 z-score
CN(N=O)C(=O)NC1C(O)OC(CO)C(O)C1O (stereo not drawn)	1.51 z-score
CN(Cc1cnc2nc(N)nc(N)c2n1)c1ccc(C(=O)N[C@@H](CCC(=O)O)C(=O)O)cc1	-1.05 z-score
CC(C)Oc1cccc(CC(=O)N2CCC[C@](CC[N+]34CCC(c5ccccc5)(CC3)CC4)(c3ccc(Cl)c(Cl)c3)C2)c1	1.76 z-score
Nc1nc(Cl)nc2c1ncn2[C@H]1C[C@H](O)[C@@H](CO)O1	-3.66 z-score
C#CCN(C)Cc1ccccc1	1.66 z-score and -1.74 z-score

Set 2 — cell line: HaCaT; tested at: 100 µM; time: 36 h
Compound	viability [%]
Cc1ccc(=O)n(-c2ccccc2)c1	108
CN1CCCCC1CCN1c2ccccc2Sc2ccc([S+](C)[O-])cc21 (stereo not drawn)	4.83
C[C@]12CC[C@@H]3c4ccc(O)cc4CC[C@H]3[C@@H]1CC[C@@H]2O	70.4
Nc1nc(O)c2ncn(COC(CO)CO)c2n1	100
CC(C)(C)c1nc(-c2cccc(NS(=O)(=O)c3c(F)cccc3F)c2F)c(-c2ccnc(N)n2)s1	56.8
CC(C)(C)C(=O)OCOP(=O)(COCCn1cnc2c(N)ncnc21)OCOC(=O)C(C)(C)C	19.8
O=C(O)CCCc1ccccc1	93.8

Set 3 — cell line: sample E normal colon organoid; technique: CellTiter-Glo; tested at: 1 µM; time: 4 days; baseline: DMSO
Compound	viability
NS(=O)(=O)c1cc(NC(=O)C2(c3ccccc3Cl)CC2)ccc1Oc1cccc(Cl)c1	112%
CN(C)c1ncnc(-c2ccc3nc(Nc4cc(CN5CCN(C(=O)CC(F)(F)F)CC5)ccn4)[nH]c3c2)c1Cl	93.8%
NS(=O)(=O)c1cc(NC(=O)Cc2ccccc2)ccc1Oc1cccc(Cl)c1	112%
C[C@H](c1ccc(F)cc1)N(Cc1ccc(Cl)c(C(=O)O)c1)C(=O)c1cnc2ccccc2c1	102%
C[C@@]1(Cc2ccc(C#N)cc2)C(=O)N(c2cc(Cl)cc(Cl)c2)c2ncc(C(=O)NC3(c4nc(C5CCC5)no4)CC3)n21	120%
C[C@H](c1ccc(F)cc1)N(Cc1cccc(C(=O)O)c1)C(=O)c1cnc2ccccc2c1	106%
CN(C)C(=O)Cn1cc(-c2nc(C3(c4ccc(-c5cnc(N)nc5)cc4)CC3)no2)cn1	87.7%
CN(c1ccnc(CNc2nc(Nc3ccc4c(c3)CC(=O)N4)ncc2C(F)(F)F)n1)S(C)(=O)=O	126%
C[C@H](c1ccnc(Nc2nc3ccc(-c4cc(N(C)C)ncn4)cc3[nH]2)c1)N1CCN(C(=O)CC(F)(F)F)CC1	67.3%
O=C(Nc1cccnn1)N1CCC(=Cc2cccc(Oc3ccc(C(F)(F)F)cn3)c2)CC1	86.5%
Cc1c(NC(=O)c2cc(C(N)=O)nc3cc(F)ccc23)c(C(F)(F)F)nn1Cc1ccc(C#N)cc1	31.8%
CCCCN(Cc1ccccc1)C(=O)c1ccc(S(=O)(=O)Nc2ccccc2)cc1	128%
C[C@H](NC(=O)c1cnc2n1[C@](C)(Cc1ccc(C#N)cc1)C(=O)N2c1cc(Cl)c(F)c(Cl)c1)C(=O)NC1(c2ccccn2)CC1	108%

Set 4 — read-out: enzyme activity; action: inhibitor; tested at: 0.5 µM; baseline: control
Target: Platelet-derived growth factor receptor beta (PDGFRB, Homo sapiens, UniProt P09619)
UniProt P09619, sequence (whole entry, looked up): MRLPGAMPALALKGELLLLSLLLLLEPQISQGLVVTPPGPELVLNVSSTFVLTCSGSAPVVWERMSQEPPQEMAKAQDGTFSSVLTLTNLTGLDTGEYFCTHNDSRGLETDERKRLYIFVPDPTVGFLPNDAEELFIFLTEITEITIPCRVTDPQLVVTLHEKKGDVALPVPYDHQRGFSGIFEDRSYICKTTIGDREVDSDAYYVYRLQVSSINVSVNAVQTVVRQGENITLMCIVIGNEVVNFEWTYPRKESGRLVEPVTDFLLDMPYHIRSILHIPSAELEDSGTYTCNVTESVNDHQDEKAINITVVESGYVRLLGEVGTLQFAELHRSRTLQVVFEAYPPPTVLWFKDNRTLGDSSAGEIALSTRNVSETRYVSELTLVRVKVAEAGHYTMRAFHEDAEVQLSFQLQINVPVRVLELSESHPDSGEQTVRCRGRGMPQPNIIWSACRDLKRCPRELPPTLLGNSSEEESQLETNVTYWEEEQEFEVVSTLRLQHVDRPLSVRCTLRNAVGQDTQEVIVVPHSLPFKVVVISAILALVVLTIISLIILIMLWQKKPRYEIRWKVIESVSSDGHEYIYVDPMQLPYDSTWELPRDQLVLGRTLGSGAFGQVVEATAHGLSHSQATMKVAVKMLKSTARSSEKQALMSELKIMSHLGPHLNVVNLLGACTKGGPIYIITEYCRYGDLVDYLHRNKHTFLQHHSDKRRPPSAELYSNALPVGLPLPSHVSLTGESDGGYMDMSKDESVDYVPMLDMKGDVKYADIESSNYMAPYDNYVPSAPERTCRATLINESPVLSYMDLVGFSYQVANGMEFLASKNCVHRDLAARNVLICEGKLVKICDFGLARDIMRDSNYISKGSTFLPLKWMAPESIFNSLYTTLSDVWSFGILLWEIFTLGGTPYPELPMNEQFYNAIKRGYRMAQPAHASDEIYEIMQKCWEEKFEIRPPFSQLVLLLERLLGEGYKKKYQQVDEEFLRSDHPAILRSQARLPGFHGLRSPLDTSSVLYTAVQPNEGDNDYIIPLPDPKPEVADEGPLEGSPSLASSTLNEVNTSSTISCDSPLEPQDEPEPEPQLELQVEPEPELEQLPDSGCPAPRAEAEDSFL
Compound	remaining activity [%]
COc1ccc(CNC(=O)Nc2ncc([N+](=O)[O-])s2)cc1	125
COc1ccc(OC)c2c(=S)c3ccccc3[nH]c12	98.1
O=S(=O)(c1cccc2cnccc12)N1CCCNCC1	102
N#CC(C#N)=C(N)/C(C#N)=C/c1ccc(O)cc1	98.8
NCCNc1ncc(C(N)=O)c(Nc2cccc(C(F)(F)F)c2)n1	78.2
OCC(O)CCON=C1C(c2c(O)[nH]c3ccccc23)=Nc2ccccc21 (stereo not drawn)	42.8
COc1cc2nccc(Oc3ccc(NC(=S)NC(=O)c4ccccc4C)cc3)c2cc1OC	26.7
COc1ccc(C(=O)Nc2sc3c(c2C(N)=O)CCCC3)cc1OC	90.9
CC(C)[C@H](CO)Nc1nc(Nc2cc(N)cc(Cl)c2)c2ncn(C(C)C)c2n1	98.1
Cc1ccc(NC(=O)c2ccc(CN3CCN(C)CC3)cc2)cc1Nc1nc(-c2cccnc2)cs1	17.3
CCOC(=O)c1c(C)[nH]c(/C=C2\C(=O)Nc3ccccc32)c1C	69.1
CO[C@H]1C[C@@H]2CC[C@@H](C)[C@@](O)(O2)C(=O)C(=O)N2CCCC[C@H]2C(=O)O[C@H]([C@H](C)C[C@@H]2CC[C@@H](O)[C@H](OC)C2)CC(=O)[C@H](C)/C=C(\C)[C@@H](O)[C@@H](OC)C(=O)[C@H](C)C[C@H](C)/C=C/C=C/C=C/1C	108
Cn1c2ccccc2c2c3c(c4c5ccccc5n(CCC#N)c4c21)CNC3=O	60.6
Nc1ccc2ncnc(NCCc3ccc(Oc4ccccc4)cc3)c2c1	105

A few entries again (set 3):
Compound	viability
C[C@H](c1ccc(F)cc1)N(Cc1ccc(Cl)c(C(=O)O)c1)C(=O)c1cnc2ccccc2c1	102%
C[C@@]1(Cc2ccc(C#N)cc2)C(=O)N(c2cc(Cl)cc(Cl)c2)c2ncc(C(=O)NC3(c4nc(C5CCC5)no4)CC3)n21	120%
C[C@H](c1ccc(F)cc1)N(Cc1cccc(C(=O)O)c1)C(=O)c1cnc2ccccc2c1	106%
CN(C)C(=O)Cn1cc(-c2nc(C3(c4ccc(-c5cnc(N)nc5)cc4)CC3)no2)cn1	87.7%
CN(c1ccnc(CNc2nc(Nc3ccc4c(c3)CC(=O)N4)ncc2C(F)(F)F)n1)S(C)(=O)=O	126%
C[C@H](c1ccnc(Nc2nc3ccc(-c4cc(N(C)C)ncn4)cc3[nH]2)c1)N1CCN(C(=O)CC(F)(F)F)CC1	67.3%
O=C(Nc1cccnn1)N1CCC(=Cc2cccc(Oc3ccc(C(F)(F)F)cn3)c2)CC1	86.5%
